Published values collected from several papers.
Protocols differ between the studies behind these lines.
Cell line: SF-295

| SMILES | assay | setting | how to read | quantity | value |
| --- | --- | --- | --- | --- | --- |
| Cn1cncc1C1=CN(c2ncnc3[nH]cnc23)CCS1 |  | CNS cancer |  | GI50 | 22.4 µM |
| CCCN1CCN(c2ccc3[nH]c(-c4ccc5[nH]c(-c6ccc(C(F)(F)F)cc6)nc5c4)nc3c2)CC1 | SRB | 10 µM, 48 h |  | growth percent | -58.4% |
| Cc1cc(-c2ccccc2)n(-c2nc(-c3ccc(Cl)cc3)c3c(NC(=O)c4ccccc4)nnc-3[nH]2)n1 | SRB | 10 µM, NCI60 single-dose screen | baseline: untreated | cell growth | 91% |
| C#C[C@@]1(O)[C@@H](CO)O[C@@H](n2ccc3c(N)ncnc32)[C@@H]1O | SRB | NCI-60 screen |  | TGI | 5.33 µM |
| Cc1cc(C)n(C(=S)[S][Au][PH](CCCCCC[PH]([Au][S]C(=S)n2nc(C)cc2C)(c2ccccc2)c2ccccc2)(c2ccccc2)c2ccccc2)n1 | cell growth, NCI-60 screen | CNS cancer |  | log10 TGI | -5.11 |
| CCN(CC)c1ccc(C=NNC(=O)CSc2nc3ccccc3c(=O)n2Cc2ccc(S(N)(=O)=O)cc2)c(O)c1 | NCI five-dose screen |  |  | TGI | > 100 µM |
| Cc1cc(C)n(-c2nc(-c3ccc(Cl)cc3)c3c(NC(=O)c4ccccc4)nnc-3[nH]2)n1 | SRB | 10 µM, NCI60 single-dose screen | baseline: untreated | cell growth | 77.2% |
| CCOc1ccc(-c2nc3cc(-c4nc5cc(N6CCN(C)CC6)ccc5[nH]4)ccc3[nH]2)cc1OCC | SRB | 10 µM, 48 h |  | growth percent | 27.1% |
| O=C(Nc1nnc2[nH]c(=S)[nH]c(-c3ccc(Cl)cc3)c1-2)c1ccccc1 | SRB | 10 µM, NCI60 single-dose screen | baseline: untreated | cell growth | 102% |
| C#C[C@@]1(O)[C@@H](CO)O[C@@H](n2cc(F)c3c(N)ncnc32)[C@@H]1O | SRB | NCI-60 screen |  | TGI | 2.33 µM |
| CCCCN1CCN(c2ccc3nc(-c4ccc5nc(-c6cc(OC)ccc6OC)[nH]c5c4)[nH]c3c2)CC1 | SRB | 10 µM, 48 h |  | growth percent | 98.6% |
| Cc1cc(=O)[nH]n1-c1nc(-c2ccc(Cl)cc2)c2c(NC(=O)c3ccccc3)nnc-2[nH]1 | SRB | 10 µM, NCI60 single-dose screen | baseline: untreated | cell growth | 94.5% |
| O=C1NCCc2[nH]c(-c3ccncc3)cc21 | MTS | NCI60 panel |  | IC50 | 7.64 µM |
| CCCCN1CCN(c2ccc3[nH]c(-c4ccc5[nH]c(-c6ccc(C(F)(F)F)cc6)nc5c4)nc3c2)CC1 | SRB | 10 µM, 48 h |  | growth percent | -84% |

A few entries again:
| SMILES | assay | setting | how to read | quantity | value |
| --- | --- | --- | --- | --- | --- |
| CCCCN1CCN(c2ccc3[nH]c(-c4ccc5[nH]c(-c6ccc(C(F)(F)F)cc6)nc5c4)nc3c2)CC1 | SRB | 10 µM, 48 h |  | growth percent | -84% |
